Measured values collected from several papers.
Compare with care: the assays were run in different laboratories. ± gives the spread as reported.
Albumin: Albumin (Mus musculus, UniProt P07724)
UniProt P07724, sequence (whole entry, looked up): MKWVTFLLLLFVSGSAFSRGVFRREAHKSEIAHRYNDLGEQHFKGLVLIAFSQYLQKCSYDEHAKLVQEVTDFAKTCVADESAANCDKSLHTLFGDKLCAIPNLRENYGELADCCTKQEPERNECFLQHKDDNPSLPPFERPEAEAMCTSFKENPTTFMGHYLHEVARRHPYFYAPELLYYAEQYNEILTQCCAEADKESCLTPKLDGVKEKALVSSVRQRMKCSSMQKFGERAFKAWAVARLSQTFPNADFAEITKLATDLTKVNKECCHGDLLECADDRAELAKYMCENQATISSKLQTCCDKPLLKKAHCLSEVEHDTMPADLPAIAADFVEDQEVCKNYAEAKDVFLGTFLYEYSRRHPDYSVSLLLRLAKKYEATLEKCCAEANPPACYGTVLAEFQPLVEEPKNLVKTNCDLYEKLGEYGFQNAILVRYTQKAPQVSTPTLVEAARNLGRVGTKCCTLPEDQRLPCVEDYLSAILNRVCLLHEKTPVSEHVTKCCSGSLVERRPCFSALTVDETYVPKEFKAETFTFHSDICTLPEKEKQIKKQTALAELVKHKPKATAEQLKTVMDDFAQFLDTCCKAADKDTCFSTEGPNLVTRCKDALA
ppa: Inorganic pyrophosphatase (ppa, Escherichia coli, UniProt P0A7A9)
UniProt P0A7A9, sequence (whole entry, looked up): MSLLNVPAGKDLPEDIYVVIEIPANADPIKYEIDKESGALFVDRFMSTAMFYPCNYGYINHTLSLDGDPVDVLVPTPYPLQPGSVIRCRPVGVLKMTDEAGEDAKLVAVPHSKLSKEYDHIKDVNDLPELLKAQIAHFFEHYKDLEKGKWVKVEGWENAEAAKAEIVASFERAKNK
TDP1: Tyrosyl-DNA phosphodiesterase 1 (TDP1, Homo sapiens, UniProt Q9NUW8)
UniProt Q9NUW8, sequence (whole entry, looked up): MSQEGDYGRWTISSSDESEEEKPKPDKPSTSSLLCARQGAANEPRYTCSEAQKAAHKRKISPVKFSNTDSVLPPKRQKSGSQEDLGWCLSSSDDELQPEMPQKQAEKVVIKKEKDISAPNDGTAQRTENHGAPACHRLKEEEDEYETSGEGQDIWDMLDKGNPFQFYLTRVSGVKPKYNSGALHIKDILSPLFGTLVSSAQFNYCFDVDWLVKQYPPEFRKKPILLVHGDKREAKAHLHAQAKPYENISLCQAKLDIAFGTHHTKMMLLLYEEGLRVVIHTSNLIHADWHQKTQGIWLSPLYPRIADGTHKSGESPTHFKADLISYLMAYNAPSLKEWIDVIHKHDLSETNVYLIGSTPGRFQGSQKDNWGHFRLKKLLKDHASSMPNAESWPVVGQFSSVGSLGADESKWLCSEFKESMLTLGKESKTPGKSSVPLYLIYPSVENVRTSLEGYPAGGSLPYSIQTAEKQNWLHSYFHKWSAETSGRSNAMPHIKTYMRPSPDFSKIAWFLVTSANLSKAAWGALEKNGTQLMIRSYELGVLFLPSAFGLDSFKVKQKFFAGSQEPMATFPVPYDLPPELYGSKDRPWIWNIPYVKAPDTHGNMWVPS
UniProt P10635, sequence (whole entry, looked up): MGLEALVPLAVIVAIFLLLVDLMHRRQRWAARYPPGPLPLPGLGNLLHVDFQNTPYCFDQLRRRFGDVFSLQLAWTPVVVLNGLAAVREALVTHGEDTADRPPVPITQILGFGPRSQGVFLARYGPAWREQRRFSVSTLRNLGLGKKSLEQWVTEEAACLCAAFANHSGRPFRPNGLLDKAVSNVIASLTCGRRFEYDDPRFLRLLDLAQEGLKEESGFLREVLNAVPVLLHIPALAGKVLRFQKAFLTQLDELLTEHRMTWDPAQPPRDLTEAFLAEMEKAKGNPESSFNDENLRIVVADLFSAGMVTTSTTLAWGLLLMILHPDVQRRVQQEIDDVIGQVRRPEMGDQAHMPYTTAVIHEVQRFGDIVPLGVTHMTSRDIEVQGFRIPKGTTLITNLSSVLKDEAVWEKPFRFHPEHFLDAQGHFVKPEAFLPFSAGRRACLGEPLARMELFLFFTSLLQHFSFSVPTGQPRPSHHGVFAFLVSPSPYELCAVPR
UniProt P33261, sequence (whole entry, looked up): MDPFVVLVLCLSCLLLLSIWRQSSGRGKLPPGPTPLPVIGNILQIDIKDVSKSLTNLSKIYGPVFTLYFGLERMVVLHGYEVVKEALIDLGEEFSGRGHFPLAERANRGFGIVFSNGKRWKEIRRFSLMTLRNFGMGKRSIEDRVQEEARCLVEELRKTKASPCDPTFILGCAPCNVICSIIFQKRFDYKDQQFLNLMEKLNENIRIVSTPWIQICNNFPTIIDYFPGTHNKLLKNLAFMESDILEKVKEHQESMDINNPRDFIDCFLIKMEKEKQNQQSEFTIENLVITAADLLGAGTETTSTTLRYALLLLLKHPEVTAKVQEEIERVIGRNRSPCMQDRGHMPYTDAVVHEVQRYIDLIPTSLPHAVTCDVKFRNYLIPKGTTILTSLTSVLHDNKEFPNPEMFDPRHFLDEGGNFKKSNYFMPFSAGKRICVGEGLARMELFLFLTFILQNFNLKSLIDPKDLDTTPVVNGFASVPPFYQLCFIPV
UniProt P22310, sequence (whole entry, looked up): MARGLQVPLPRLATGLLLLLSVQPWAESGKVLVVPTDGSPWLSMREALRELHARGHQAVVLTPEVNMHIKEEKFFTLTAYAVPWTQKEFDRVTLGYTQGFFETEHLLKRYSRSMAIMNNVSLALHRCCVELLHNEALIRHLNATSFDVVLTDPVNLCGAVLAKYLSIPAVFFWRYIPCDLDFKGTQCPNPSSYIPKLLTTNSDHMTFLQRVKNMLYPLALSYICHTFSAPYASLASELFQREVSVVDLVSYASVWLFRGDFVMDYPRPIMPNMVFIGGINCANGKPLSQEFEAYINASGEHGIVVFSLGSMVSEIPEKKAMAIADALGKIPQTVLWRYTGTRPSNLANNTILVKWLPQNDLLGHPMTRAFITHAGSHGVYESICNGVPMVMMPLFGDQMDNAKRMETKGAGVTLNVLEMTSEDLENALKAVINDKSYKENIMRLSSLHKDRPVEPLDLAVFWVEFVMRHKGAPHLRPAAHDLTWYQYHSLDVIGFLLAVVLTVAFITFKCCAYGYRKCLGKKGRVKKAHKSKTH

| SMILES | tested on | assay | system | conditions | scale | measurement | result |
| --- | --- | --- | --- | --- | --- | --- | --- |
| CC(C)Cc1ccc(C(C)C(=O)N[C@@H](CCCCNC(=O)CCOCCOCCOCCOCCOCCOCCNC(=O)CN2CCN(CC(=O)[O-])CCN(CC(=O)[O-])CCN(CC(=O)[O-])CC2)C(=O)Nc2cccc3c(C(=O)NCC(=O)N4CC(F)(F)C[C@H]4C#N)ccnc23)cc1.[177Lu+3] (stereo partly drawn) | U-87 MG tumour model | – | host not given, tumour | 24 h, tumour-bearing | – | tracer uptake | 9.1 %ID/g |
| CN(C)c1ccc2c(c1)[Si](C)(C)c1cc(N(C)C)ccc1C21OC(=O)c2cc(C(=O)O)ccc21 | Albumin | binding, fluorescence titration | PBS | – | – | Kd | 17 ± 4 µM |
| COc1ccc2c(c1OC)C(=O)N(c1ccc(Cl)c(Cl)c1)C2 | ppa | enzyme activity, inhibitor | – | – | – | IC50 | > 100 µM |
| Cc1cc(O)c(=O)c(O)cc1C(=O)c1cccc2ccccc12 | HepDES19 | cell growth or viability, MTS | – | 72 h | – | CC50 | > 100 µM |
| CN(C)c1ccc2c(c1)C(C)(C)c1cc(N(C)C)ccc1C21OC(=O)c2ccc(C(=O)O)cc21 | Albumin | binding, fluorescence titration | PBS | – | – | Kd | 126 ± 23 µM |
| Cc1ncsc1-c1ccc(C(C)NC(=O)C2CC(O)CN2C(=O)C(NC(=O)CCCCCCCCCCN2CCCC(Nc3ncc(Cl)c(Nc4ccccc4S(=O)(=O)C(C)C)n3)C2)C(C)(C)C)cc1 (stereo not drawn) | 22Rv1 | RNA-seq, item: MLH3 mRNA | – | concentration not given | relative to: DMSO | log2 fold change | -1.27 |
| CC(C)(C)OC(=O)C[N+](C)(C)CCCN1c2ccccc2CCc2ccc(Cl)cc21 | ppa | inhibitor, counter-screen, coupling enzyme alone | – | – | – | IC50 | 38.9 µM |
| CNC(=O)C1CCCN(C(=O)C2CC3CCC2N3C(=O)[C@@H]2C[C@@H](O)CN2C(=O)NCc2cccc(Cl)c2F)C1 (mixture of isomers) | Cytochrome P450 2D6 (CYP2D6, Homo sapiens, UniProt P10635) | enzyme activity, inhibitor, time-dependent inhibition | – | 0.0686 µM, preincubated with NADPH | – | dextrorphan formation | 111 ng/mL |
| CN1CCN(c2ccc3[nH]c(-c4ccc5[nH]c(-c6ccc(OCCCCNC(=O)c7cccc8c7C(=O)OC87c8ccc(N(C)C)cc8[Si](C)(C)c8cc(N(C)C)ccc87)cc6)nc5c4)nc3c2)CC1 | Albumin | binding, fluorescence titration | PBS | 1 h | – | Kd | 96 ± 53 µM |
| C=CC(=O)Nc1cc(Nc2nccc(-c3cn(C)c4ccccc34)n2)c(OCC(F)(F)F)nc1N(C)CCN(C)C | CYP2C19 (Homo sapiens, UniProt P33261) | substrate | – | 3 µM, 60 min, 2C19 isoform, liver abundance-normalized | – | contribution to substrate depletion | 0.668% |
| Cc1cc(O)c(=O)c(O)cc1C(=O)c1ccc([N+](=O)[O-])cc1 | HepDES19 | cell growth or viability, MTS | – | 72 h | – | CC50 | 45.4 µM |
| CC(C)OCCOCc1ccc(OCC(O)CN(N=O)C(C)C)cc1 (stereo not drawn) | Salmonella typhimurium | Ames test | TA1537 | 5 µg/plate, 30 % rat S9 | relative to: solvent control | revertant fold increase | 1.4 fold |
| N#C[C@@H]1CC(F)(F)CN1C(=O)CNC(=O)c1ccnc2c(NC(=O)CCOCCOCCOCCOCCOCCOCCNC(=O)[C@H](CCCCNC(=O)CN3CCN(CC(=O)[O-])CCN(CC(=O)[O-])CCN(CC(=O)[O-])CC3)NC(=O)CCCc3ccc(I)cc3)cccc12.[177Lu+3] | U-87 MG tumour model | – | host not given, liver | 24 h, tumour-bearing | – | tracer uptake | 2.42 %ID/g |
| COC(=O)c1c(C)oc2cc(Br)c(O)c(C=NOCc3ccc4nc(-c5ccccc5)c(Nc5ccc(C(=O)O)cc5)n4c3)c12 (mixture of isomers) | TDP1 | enzyme activity, inhibitor | – | 100 µM, unpurified compound | – | inhibition | 3.2% |
| Nc1nc2cc(C(=O)c3ccc(F)cc3)ccc2[nH]1 | Salmonella typhimurium | Ames preincubation test | TA1535 | 156.0 µg/plate, without S9 | – | revertants | 14.7 revertants/plate |
| O=C1C2CC3CC1CC(C(=O)N1CCN(c4ccc([N+](=O)[O-])c5ncccc45)CC1)(C3)C2 | Salmonella typhimurium | Ames test | TA1535 | 0.13 µg/well, without S9 activation | – | revertant colony count | 2 colonies/well |
| Cc1cc(O)c(=O)c(O)cc1C(=O)c1cccc([N+](=O)[O-])c1 | HepDES19 | cell growth or viability, MTS | – | 72 h | – | CC50 | 20 µM |
| N=C(N)NCCC[C@@H]1NC(=O)[C@H](CCCNC(=N)N)NC(=O)[C@@H](C(c2ccccc2)c2ccccc2)NC(=O)[C@H](Cc2c[nH]c3ccccc23)NC(=O)[C@@H](C(c2ccccc2)c2ccccc2)NC(=O)[C@@H](CCCNC(=N)N)NC(=O)[C@@H](CCCNC(=N)N)NC1=O | human red blood cells | haemolysis | – | 2 h, 37 °C | – | HC50 | 335 µg/mL |

| SMILES | tested on | assay | system | conditions | scale | measurement | result |
| --- | --- | --- | --- | --- | --- | --- | --- |
| CN(C)c1ccc2c(c1)C(C)(C)c1cc(N(C)C)ccc1C21OC(=O)c2cc(C(=O)O)ccc21 | Albumin | binding, fluorescence titration | PBS | – | – | Kd | 184 ± 114 µM |
| N#C[C@@H]1CCCN1C(=O)CNC(=O)c1ccnc2ccc(OCCCN3CCN(C(=O)CCc4ccc5c(c4)CN4CCN(Cc6cc(CCC(=O)O)ccc6O)CC(=O)[O][Al-]([18F])([O]C(=O)C4)[O]5)CC3)cc12 (stereo partly drawn) | U-87 MG tumour model | – | host not given, muscle | 1 h, tumour-bearing | – | tracer uptake | 1.35 %ID/g |
| COc1cccc(OC)c1-c1cc(C(=O)NC2(C(=O)O)C3CC4CC(C3)CC2C4)nn1-c1ccc(C(=O)N(C)CCOCCN(C)C(=O)[C@H](CCCCNC(=O)[C@H](CC(C)C)NC(=O)C2OC2C(=O)O)NC(=O)CN2CCN(CC(=O)[O-])CCN(CC(=O)[O-])CCN(CC(=O)[O-])CC2)cc1C(C)C.[177Lu+3] (mixture of isomers) | HT-29 tumour model | – | host not given, blood | 72 h, tumour-bearing | – | tracer uptake | 0.7 %ID/g |
| Cc1cc(O)c(=O)c(O)cc1-c1ccc2ccccc2c1 | HepDES19 | cell growth or viability, MTS | – | 72 h | – | CC50 | 86.8 µM |
| COc1cccc(OC)c1-c1cc(C(=O)NC2(C(=O)O)C3CC4CC(C3)CC2C4)nn1-c1ccc(C(=O)NCCNC(=O)[C@H](CCCCNC(=O)[C@H](CC(C)C)NC(=O)C2OC2C(=O)O)NC(=O)CN2CCN(CC(=O)[O-])CCN(CC(=O)[O-])CCN(CC(=O)[O-])CC2)cc1C(C)C.[177Lu+3] (mixture of isomers) | HT-29 tumour model | – | host not given, bone | 4 h, tumour-bearing | – | tracer uptake | 0.75 %ID/g |
| O=C(Nc1cnccc1-c1ccc([18F])cc1)c1ccnc(NC(=O)C2CC2)c1 | – | PET imaging | FVB/NJ mice, both sexes, brain | intravenous, 5 min post-injection, P-gp inhibited, together with: tariquidar 15 mg/kg iv, 2 h before | – | SUV over first 5 min | 0.75 ± 0.21 |
| CCOC(=O)c1cc(O)c(=O)c(O)cc1C | HepDES19 | cell growth or viability, MTS | – | 72 h | – | CC50 | 93 µM |
| COc1cccc(OC)c1-c1cc(C(=O)NC2(C(=O)O)C3CC4CC(C3)CC2C4)nn1-c1ccc(C(=O)N(C)CCCN(C)C(=O)[C@H](CCCCNC(=O)[C@H](CC(C)C)NC(=O)C2OC2C(=O)O)NC(=O)CN2CCN(CC(=O)[O-])CCN(CC(=O)[O-])CCN(CC(=O)[O-])CC2)cc1C(C)C.[177Lu+3] (mixture of isomers) | HT-29 tumour model | – | host not given, blood | 72 h, tumour-bearing | – | tracer uptake | 0.037 %ID/g |
| C=C(NC(=O)c1csc(-c2nc3c(cc2O)-c2nc(cs2)C(=O)NC(C(C)O)C(=O)NC(=C(C)OC)c2nc(cs2)C(=O)NC2c4nc(cs4)C(=O)NC(COC(=O)c4c5c6c(cccc6n4O)COC(=O)C(OC4CC(C)(O)C(N(C)C)C(C)O4)C2OC5)c2nc-3cs2)n1)C(N)=O (stereo not drawn) | – | – | ICR mice, Streptococcus pneumoniae ATCC 49169 infected, immunocompromised, blood | intravenous, 32 mg/kg/day three times daily | – | AUC(0-inf) | 2930 ng·h/mL |
| CCN(CC)CC#CCNc1ccnc2cc(Cl)ccc12 | Salmonella typhimurium | mini-Ames test | TA102 | 62.5 µg/well, without S9 | – | revertants per well | 74 |
| COC(=O)Nc1nc2cc(C(O)c3ccc(F)cc3)ccc2[nH]1 (stereo not drawn) | Salmonella typhimurium | Ames preincubation test | TA1535 | 875.0 µg per plate, 3 days, without S9, precipitation | – | revertants | 16 revertants per plate |
| Cc1ccccc1C(=O)Oc1cccccc1=O | HepDES19 | cell growth or viability, MTS | – | 72 h | – | CC50 | > 100 µM |
| COC1CN([C@H]2CC[C@H]([C@@]3(C)Oc4c(Cl)cc(C(=O)NCc5c(SC)cc(C)[nH]c5=O)c(C)c4O3)CC2)C1 | – | RNA-seq, item: S100A10 | human, whole blood | dose not given, 24 h | relative to: pretreatment baseline | log2 fold change | 1.43 |
| C=C(C)C1CCc2c(c(C)cc(O)c(=O)c2O)C1 (stereo not drawn) | HepDES19 | cell growth or viability, MTS | – | 72 h | – | CC50 | 35 µM |
| N#C[C@@H]1CC(F)(F)CN1C(=O)CNC(=O)c1ccnc2c(NC(=O)[C@@H](N)CCCCNC(=O)CCOCCOCCOCCOCCOCCOCCNC(=O)CN3CCN(CC(=O)[O-])CCN(CC(=O)[O-])CCN(CC(=O)[O-])CC3)cccc12.[177Lu+3] | U-87 MG tumour model | – | host not given, bone | 24 h, tumour-bearing | – | tracer uptake | 0.22 %ID/g |
| Cc1c(C=NOCc2ccc3nc(-c4ccccc4)c(Nc4ccc(C(=O)O)cc4)n3c2)c2ccccc2n1CC(=O)O (mixture of isomers) | TDP1 | enzyme activity, inhibitor | – | 100 µM, unpurified compound | – | inhibition | -4.6% |
| COC(=O)c1cc(O)c(=O)c(OC)cc1C | HepDES19 | cell growth or viability, MTS | – | 72 h | – | CC50 | > 100 µM |
| CCCCN1C(=O)c2cccc3c(N4CCN(C)CC4)ccc(c23)C1=O | UGT1A4 (Homo sapiens, UniProt P22310) | N-glucuronidation, substrate, relative activity factor | human, recombinant UGT, liver microsomes | – | – | contribution of other UGTs | < 2% |
